Experimental data pooled from the literature.
Each numbered part is a random draw from the data of one study; scales do not carry over between parts.

Series 1
Target: Ras GTPase-activating protein-binding protein 1, C-terminal RGG region (G3BP1, Homo sapiens, UniProt Q13283)
Sequence of UniProt Q13283 (whole entry, looked up): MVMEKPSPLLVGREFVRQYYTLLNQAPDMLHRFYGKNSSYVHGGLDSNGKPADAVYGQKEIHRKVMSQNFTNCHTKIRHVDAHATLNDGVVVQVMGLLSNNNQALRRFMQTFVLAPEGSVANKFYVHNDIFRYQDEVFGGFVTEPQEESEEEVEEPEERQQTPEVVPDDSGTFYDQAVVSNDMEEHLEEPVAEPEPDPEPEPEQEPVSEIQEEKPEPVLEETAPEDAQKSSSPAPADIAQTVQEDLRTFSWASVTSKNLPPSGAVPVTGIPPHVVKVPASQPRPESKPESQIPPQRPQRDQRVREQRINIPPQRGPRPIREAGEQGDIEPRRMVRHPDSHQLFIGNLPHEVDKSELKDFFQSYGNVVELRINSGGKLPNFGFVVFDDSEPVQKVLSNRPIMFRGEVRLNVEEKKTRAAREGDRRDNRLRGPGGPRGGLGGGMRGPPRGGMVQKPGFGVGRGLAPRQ
Method: RNA Bind-n-Seq
Molecule type: RNA
Sample: in vitro
Tested at: 1 µM
Setting: whole 134-nt RNA, ends assumed
Together with: 150 mM KCl
Reference: input library
Reading: higher = stronger binding
Oligonucleotide | log2 enrichment
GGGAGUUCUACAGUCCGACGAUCCACAGACAACACGCACCAACACAGACACAGAGGGAAGGGGUUGGGAUGGGGACAGGGUGCACAGCAGGGCGGGGUAGGACCCCAGCCCCUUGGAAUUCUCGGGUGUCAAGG | 0.444
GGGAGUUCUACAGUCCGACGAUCCUCAAGUCCUGUGCUACACAUCGUAUGUACCGAAUCGGGCCCGGCCCGGCCCGGAAAGUAUUAUGUUACGCCGUUCGGAUCUGCACUUCCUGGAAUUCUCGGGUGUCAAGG | -1.53
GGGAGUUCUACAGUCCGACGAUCCCUGUGCUACACAUCGUAUGUACCGAAUCGGGUUUUUUUGGUUUUUUUGGGGUUUUUUUGGAAAGUAUUAUGUUACGCCGUUCGGAUCUGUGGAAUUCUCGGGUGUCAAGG | -1.6
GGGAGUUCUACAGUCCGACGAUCAGUCCUGUGCUACACAUCGUAUGUACCGAAUCGGUUUGGAAAAAAAGGUUUUUUUGGAAAGUAUUAUGUUACGCCGUUCGGAUCUGCACUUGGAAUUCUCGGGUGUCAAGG | -2.24
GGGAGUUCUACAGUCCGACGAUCCUCAAGUCCUGUGCUACACAUCGUAUGUACCGAAUCGGUUUGGUUUGGGUUUGGAAAGUAUUAUGUUACGCCGUUCGGAUCUGCACUUCCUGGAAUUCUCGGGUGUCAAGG | -0.951
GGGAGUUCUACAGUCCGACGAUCACCAUGCAGGUGGGCAUCCUUGGGAAGUGGGGCAAGGGGGGGAUAGGGAGGGGGGUAACACUUUGGGAACAGGUGGUCCCAGGUCGUUUCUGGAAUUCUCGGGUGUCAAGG | -1.08
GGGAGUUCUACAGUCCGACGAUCACCAUGCAGGUGGGCAUCUUUGGGAAGUGGGGCAAGGGGGGGAUAGGGAGGGGGGCAACACUUUGGGAACAGGUGGUCCCAGGUCGUUUCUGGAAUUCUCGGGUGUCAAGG | 1.02
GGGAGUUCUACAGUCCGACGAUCGUCCUGUGCUACACAUCGUAUGUACCGAAUCAAAUUUAAACCCCCAAACCCCCCCAAAAAAGUAUUAUGUUACGCCGUUCGGAUCUGCACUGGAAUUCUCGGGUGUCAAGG | -0.801
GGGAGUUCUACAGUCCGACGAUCUGUGCUACACAUCGUAUGUACCGAAUCGGGGUUUUUGGGGAAAAAAAGGGGUUUUUUUGGGGAAAGUAUUAUGUUACGCCGUUCGGAUCUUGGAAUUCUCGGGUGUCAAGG | 1.03
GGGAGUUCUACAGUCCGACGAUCCACAGACAACACGCACCCACACAGACACAGAGGGAAGGGGUUGGGAUUGGGACAGGGUGCACAGCAGGGCGGGGUAGGACCCCAGCCCCUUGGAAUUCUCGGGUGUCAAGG | -0.749

Series 2
Target: Histone acetyltransferase KAT6A, winged helix 1, GST fusion (KAT6A, Homo sapiens, UniProt Q92794, residues 1-85)
Method: protein binding microarray
Molecule type: double-stranded DNA, one strand shown
Sample: in vitro
Tested at: not given
Setting: 8-mer, flanks averaged, mean of 2 arrays, mostly near background
Reference: not given
Reading: higher = stronger binding
Residues (chain): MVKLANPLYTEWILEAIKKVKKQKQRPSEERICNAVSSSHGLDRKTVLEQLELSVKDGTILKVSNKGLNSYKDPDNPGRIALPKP
Oligonucleotide | E-score
ACGTTATG | -0.0411
CCGATATC | 0.0611
AAAATTAC | 0.00132
ACCTTAGA | -0.0409
CACGGCAC | 0.326
CCGTTTTA | 0.167
CACACTAG | 0.0731
CATAGGAA | -0.17
GCCTGTAA | -0.111
GCTGAAAC | 0.0725
GATCGCAC | 0.0867
CCGTGACC | 0.287
AGGGTTCC | -0.175
CACGTCTC | 0.0337
TCGTGTAA | -0.0532
GAACAGAC | 0.00094
AATGTTTC | 0.0407
GGCCACTA | 0.0316
ATGGACCA | -0.198
GAACTGGA | -0.0507
AAAAAGAC | -0.158
AGGACCAG | -0.0474
AACGTGCC | 0.0532

Series 3
Target: RNA binding protein fox-1 homolog 2, RRM domain, GST-SBP tag (RBFOX2, Homo sapiens, UniProt O43251-10, residues 100-194)
Method: RNA Bind-n-Seq
Molecule type: RNA
Sample: in vitro
Tested at: 365 nM
Setting: natural RNA segment, single round, ends assumed
Reference: no-protein control
Reading: higher = stronger binding
Oligonucleotide | RBNS enrichment (R)
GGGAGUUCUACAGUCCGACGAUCCCUGCCACAGCCACCUCCCUCCCUGGCCAUCCCAGAGCCGAGGCUCCCACUGUCCUCAGAGAGCCUGCAUGGAAAUGCUGUCCUCUUCCACUCUCCUCCUCUUUUUGAUAUGGAAUUCUCGGGUGCCAA | 1.36
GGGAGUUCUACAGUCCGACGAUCCCAGAGCCCACGAGGCUUGCAGAUCGGGGGCAUAGGAAUUUGGAAUCCAAGAGCUAUAAUUUUUAAAAAAAAAAAUCUUUUAUUUUAAUACAUUGUAGGAAAUCUUCAUAUGGAAUUCUCGGGUGCCAA | 0.728
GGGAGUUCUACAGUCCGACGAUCCUUGCAGCUAGCCGAGAUAGCACCACUGCACUCCAGCCUGGGCGACAGUGAGACUCCGUUUCAAAAAAAAAAGCAUCAGGCCCAUGAAGUAUCAAAAACCAGGUUAGGAGUGGAAUUCUCGGGUGCCAA | 4.41
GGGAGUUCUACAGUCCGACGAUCUGAUGUGUAUAAAAUAUGCAAACAUUUCACAAAUGUUCUUUGUCAUUUCAAAAUACUUUAGUAUAUCAAUAUCAGUAGAUACCAGUGGGUGGGAAAGGGUCAUUACAUGAUGGAAUUCUCGGGUGCCAA | 0.388
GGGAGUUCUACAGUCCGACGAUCUUAUCACCAAACAAUAUGUUAAGUGGCUUUCCUUGGCAUCUACAGAGAAAACAUUCUAUAGCCCUCCUUCCUAGGUGUUACCAUUCACUGAAUCUUCUCUCAGAGGGAGAUGGAAUUCUCGGGUGCCAA | 0.51
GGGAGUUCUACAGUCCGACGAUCUUUACAUAAGUGUGUGGGUGUCUUGUGGGGGAAGGUUCUGUGCUCUUGUUUUUGUUAAUUUAUUGGAACUCUGUAUAAGGCCAUAUUUUAGUGGCUGUCUGAAACCCCAUUGGAAUUCUCGGGUGCCAA | 1.64
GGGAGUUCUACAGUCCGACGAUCAUGAAUGGGAUGUCUAAUGUAUUUCAAAAUCACCCAAAACUUUUGGCAAAUAAAAGCAUUUAAAAAGCCUUUCUGUACAGGAUUUUUAAAAUGUUAUCAGCUUAGUCUGAUGGAAUUCUCGGGUGCCAA | 1.2
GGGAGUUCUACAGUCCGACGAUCACAUGAAUUACCAAAGAAAGCACCUUCUUGGCCUGACAGACCAUUGGUGGGGCUGGCACGAAUCCAGAUCUGGAUCCUACAUCUGUUGGGUCUUAGGCCUCCUUCCCUCCUGGAAUUCUCGGGUGCCAA | 0.385
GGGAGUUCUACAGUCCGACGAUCGGCACUUGCAUGGGAGCCACAGAGGAGCGUCCCUGGGGAUUGUUGGGACCAUGCUGCCCCCACUCCCGCUUUUGUUGGGGCUCUAAGUUCUGGAAGGUGUGUGCACAGAGUGGAAUUCUCGGGUGCCAA | 10.5

Series 4
Target: RING finger protein unkempt homolog, zinc fingers 1-6, GST-SBP tag (UNK, Homo sapiens, UniProt Q9C0B0, residues 30-357)
Method: RNA Bind-n-Seq
Molecule type: RNA
Sample: in vitro
Tested at: not given
Setting: RNA with constant flanks, human-mouse chimeric sites, ends assumed
Reference: input RNA pool
Reading: higher = stronger binding
Residues (chain): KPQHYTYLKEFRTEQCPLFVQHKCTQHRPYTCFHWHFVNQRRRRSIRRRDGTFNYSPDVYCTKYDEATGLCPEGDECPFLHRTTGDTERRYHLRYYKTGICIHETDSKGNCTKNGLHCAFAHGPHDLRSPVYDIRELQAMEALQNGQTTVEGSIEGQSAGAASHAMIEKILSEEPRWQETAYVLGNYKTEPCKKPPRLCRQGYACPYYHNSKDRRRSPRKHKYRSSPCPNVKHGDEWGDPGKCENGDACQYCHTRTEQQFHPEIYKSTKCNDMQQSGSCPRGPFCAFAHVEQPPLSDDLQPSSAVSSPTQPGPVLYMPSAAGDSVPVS
Oligonucleotide | bound/input enrichment
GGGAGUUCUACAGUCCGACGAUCGUACUGCAGCAGCAGGGAAAACUGCAGGAAGCACUGAUGCAUUAUAAGGAGGCUAUUCGAAUCAGUCCUACAUUUGCUGAUGCCUACUCUAAUAUGGGAAACACUCUAAAGGAGAUGCAGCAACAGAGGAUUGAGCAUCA | 0.331 ratio
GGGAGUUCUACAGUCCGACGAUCAACUUCGUACAUAGAUUUCCCUUUGUAGCUGUUUCAAUUGGCUUCCUUGUGAAUAAAAAGAUAGAAUUUGGAAUUGUGUACAGCUGUGUGGAAGAUAAGAUGUACACCGGCAGGAAAGGGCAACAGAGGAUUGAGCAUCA | 4.73 ratio
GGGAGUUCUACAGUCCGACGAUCGAUCCACAGUGGUCUGAGGAGCAACUCAUUGCUGCAAAAUUCUGUUUUGCUGGCCUUGUUAUAGGGCAGACUGAAGUGGACAUCAUGAGUCAUGCUACACAAGCUAUUUUUGAAAUUCUGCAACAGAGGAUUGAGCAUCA | 0.206 ratio
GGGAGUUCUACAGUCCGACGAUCGCUCUUGGGAAUGUAAUCAGCGCCUUGGGAGACAAGAGCAAGAGAGCCACCCAUGUCCCUUACAGAGACUCUAAGCUGACAAGACUCUUGCAGGAUUCCCUUGGGGGUAACAGCCAAACCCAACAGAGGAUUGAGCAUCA | 0.126 ratio
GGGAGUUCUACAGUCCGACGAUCCGCUGGCCCAAGCUGAUGGACUCUGAUGGCCUCCAUCUCUCAGGCACGUUUGCCUUCUCUUAGUCCCUGUUUUCGGGAUGUUAUGAAUCUCAGUACUGUGGUUUGAAAGCAGUUAUGUUGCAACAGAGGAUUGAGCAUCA | 0.185 ratio
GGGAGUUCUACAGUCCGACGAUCCGCUGGCCCAAGCUGAUGGACUCUGAUGGCCUCCAUCUCUCAGGCACGUGUGCCUUCUCUUAGUUAUUGUUUUCGGGUCACAAAGCUUCUCAGUACUGUGGUUUGAAAGCACCAGCUUUGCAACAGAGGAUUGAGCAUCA | 0.419 ratio
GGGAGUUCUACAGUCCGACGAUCAUGGAACAUUUCGAUGCGUCACUCAGUACCUAUUUCAAGGCCUUCCUGGGCCCCCGAGAUACUAGAGUCAAAGGAUGGUUCCUCCUGGACAAUUACAUCCCUACGUUUAUCUGCUCUGUUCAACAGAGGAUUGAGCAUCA | 0.0729 ratio

For quick reference, copied from above (series 3):
Oligonucleotide | RBNS enrichment (R)
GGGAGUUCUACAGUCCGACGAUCCCUGCCACAGCCACCUCCCUCCCUGGCCAUCCCAGAGCCGAGGCUCCCACUGUCCUCAGAGAGCCUGCAUGGAAAUGCUGUCCUCUUCCACUCUCCUCCUCUUUUUGAUAUGGAAUUCUCGGGUGCCAA | 1.36
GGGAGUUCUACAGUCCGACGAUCCCAGAGCCCACGAGGCUUGCAGAUCGGGGGCAUAGGAAUUUGGAAUCCAAGAGCUAUAAUUUUUAAAAAAAAAAAUCUUUUAUUUUAAUACAUUGUAGGAAAUCUUCAUAUGGAAUUCUCGGGUGCCAA | 0.728
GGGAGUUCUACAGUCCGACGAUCCUUGCAGCUAGCCGAGAUAGCACCACUGCACUCCAGCCUGGGCGACAGUGAGACUCCGUUUCAAAAAAAAAAGCAUCAGGCCCAUGAAGUAUCAAAAACCAGGUUAGGAGUGGAAUUCUCGGGUGCCAA | 4.41
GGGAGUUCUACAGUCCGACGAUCUGAUGUGUAUAAAAUAUGCAAACAUUUCACAAAUGUUCUUUGUCAUUUCAAAAUACUUUAGUAUAUCAAUAUCAGUAGAUACCAGUGGGUGGGAAAGGGUCAUUACAUGAUGGAAUUCUCGGGUGCCAA | 0.388
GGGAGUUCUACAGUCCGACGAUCUUAUCACCAAACAAUAUGUUAAGUGGCUUUCCUUGGCAUCUACAGAGAAAACAUUCUAUAGCCCUCCUUCCUAGGUGUUACCAUUCACUGAAUCUUCUCUCAGAGGGAGAUGGAAUUCUCGGGUGCCAA | 0.51
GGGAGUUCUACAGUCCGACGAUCUUUACAUAAGUGUGUGGGUGUCUUGUGGGGGAAGGUUCUGUGCUCUUGUUUUUGUUAAUUUAUUGGAACUCUGUAUAAGGCCAUAUUUUAGUGGCUGUCUGAAACCCCAUUGGAAUUCUCGGGUGCCAA | 1.64
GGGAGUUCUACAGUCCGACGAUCAUGAAUGGGAUGUCUAAUGUAUUUCAAAAUCACCCAAAACUUUUGGCAAAUAAAAGCAUUUAAAAAGCCUUUCUGUACAGGAUUUUUAAAAUGUUAUCAGCUUAGUCUGAUGGAAUUCUCGGGUGCCAA | 1.2
